Published values gathered from unrelated publications.
Numbered parts are unrelated; each lists some results of a single study. Changes are numbered by the printed parent chain.

Sample 1
Target: CCNF, cyclin fold, Cln2 fusion (human)
Method: yeast growth competition, sequencing
Medium: yeast
Notes: strong parent motif
Baseline: not given
Direction: higher = stronger binding
Parent: CDC6 docking peptide (human); TLKGRRLVFDNQL
Variant	normalised enrichment score
R5W	-0.52
L7K	1.95
F9C	0.753
G4K	4.27
R5T	4.46
R5G	0.395
K3I	8.81
L7I	5.09
R5E	0.454
D10N	8.11
D10Q	6.52
V8E	7.97
V8L	9.3
Q12Y	10.1
R6F	4.64
T1E	8.32
L7C	0.944
N11H	8.3
N11G	7.91

Sample 2
Target: Sal-like protein 4, full length isoform A (SALL4, Homo sapiens, UniProt Q9UJQ4, residues 1-1053)
Chain of UniProt Q9UJQ4 (whole entry, looked up): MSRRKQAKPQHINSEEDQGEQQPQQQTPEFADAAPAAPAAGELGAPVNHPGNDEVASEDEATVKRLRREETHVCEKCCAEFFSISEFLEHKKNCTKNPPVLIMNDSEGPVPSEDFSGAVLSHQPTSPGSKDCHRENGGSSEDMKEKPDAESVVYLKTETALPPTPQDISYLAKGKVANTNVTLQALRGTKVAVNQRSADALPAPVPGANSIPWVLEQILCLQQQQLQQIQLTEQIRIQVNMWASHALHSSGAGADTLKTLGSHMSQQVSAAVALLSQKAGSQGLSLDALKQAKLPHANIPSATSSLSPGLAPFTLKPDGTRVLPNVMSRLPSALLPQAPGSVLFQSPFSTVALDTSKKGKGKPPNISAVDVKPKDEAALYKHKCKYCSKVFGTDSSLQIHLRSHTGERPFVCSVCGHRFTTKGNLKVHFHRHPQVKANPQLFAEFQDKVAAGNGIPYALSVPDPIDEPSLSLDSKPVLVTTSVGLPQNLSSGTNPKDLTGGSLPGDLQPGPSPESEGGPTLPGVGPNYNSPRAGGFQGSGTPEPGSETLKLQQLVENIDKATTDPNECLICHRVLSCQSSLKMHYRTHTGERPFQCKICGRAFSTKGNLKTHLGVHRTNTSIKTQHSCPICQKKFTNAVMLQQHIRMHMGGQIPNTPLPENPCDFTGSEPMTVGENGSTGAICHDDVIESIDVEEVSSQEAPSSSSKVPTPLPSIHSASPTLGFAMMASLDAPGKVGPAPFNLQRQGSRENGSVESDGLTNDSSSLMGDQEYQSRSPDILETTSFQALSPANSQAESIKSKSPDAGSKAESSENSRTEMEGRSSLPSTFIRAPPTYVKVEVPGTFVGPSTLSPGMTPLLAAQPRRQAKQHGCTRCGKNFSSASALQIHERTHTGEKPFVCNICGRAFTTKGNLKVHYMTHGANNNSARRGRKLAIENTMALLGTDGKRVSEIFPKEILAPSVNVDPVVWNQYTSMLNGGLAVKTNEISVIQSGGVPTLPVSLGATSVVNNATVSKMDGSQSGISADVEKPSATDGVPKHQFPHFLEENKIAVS
Method: universal PBM
Molecule type: double-stranded DNA, one strand shown
Medium: in vitro
Tested at: 600 nM
Notes: 8-mer, flanks averaged, mean of replicates
Direction: higher = stronger binding
Sequence	E-score
CCTCGTCA	0.0207
CTACAGCC	-0.186
GCGCCCCC	-0.334
ACTAAACC	0.0375
TACGGGGA	-0.234
GAGTTCAC	-0.173
CACTAGAA	0.0916
GATGCGCC	-0.131
CCGGACCG	-0.401
GTCGATTA	0.216
TGGGATAA	0.137
ATAGGCTG	0.00854
AGATTTTG	0.141
ACGCACAA	0.101
GAGCGGCC	-0.422
ATACTACG	0.115
CAACCAAA	0.0424
GACTCGAA	-0.174
CACTACAC	0.00926
GCCTTTAC	0.0034
CACGCTCG	-0.292
AGTGGGCC	-0.322
CCAGCAGA	-0.07

Sample 3
Target: Histone acetyltransferase KAT6A, winged helix 1, GST fusion (KAT6A, Homo sapiens, UniProt Q92794, residues 1-85)
Method: protein binding microarray
Molecule type: double-stranded DNA, one strand shown
Medium: in vitro
Tested at: not given
Notes: 8-mer, flanks averaged, mean of 2 arrays, mostly near background
Baseline: not given
Direction: higher = stronger binding
Target sequence (chain): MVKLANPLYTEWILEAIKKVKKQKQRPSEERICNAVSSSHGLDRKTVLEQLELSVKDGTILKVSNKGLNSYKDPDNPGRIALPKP
Sequence	E-score
AAGGGGTG	-0.0472
TGTGAGAA	-0.238
GCCATACC	-0.0157
GATAGAAC	-0.108
GTTGAAAA	-0.207
ATGGTTAC	0.0485
AACTAAGA	-0.0748
AGGACCCC	-0.0221
CAGGGTTA	-0.104
ATGCACAC	-0.0743
AACTGAGC	-0.0116
CCCTACTA	0.0628
GGTTACAC	-0.0562
CTAGAGAG	-0.23
CATAAGTC	-0.105
CCTGAAAA	0.000715
AGGCGCTC	0.224
CACTAGTA	0.017
CGGCTGCC	0.268

Sample 4
Target: RNA binding protein fox-1 homolog 2, RRM domain, GST-SBP tag (RBFOX2, Homo sapiens, UniProt O43251-10, residues 100-194)
Method: RNA Bind-n-Seq
Molecule type: RNA
Medium: in vitro
Tested at: 365 nM
Notes: natural RNA segment, single round, ends assumed
Baseline: no-protein control
Direction: higher = stronger binding
Shared flanks, not repeated: GGGAGUUCUACAGUCCGACGAUC … UGGAAUUCUCGGGUGCCAA
Target sequence (chain): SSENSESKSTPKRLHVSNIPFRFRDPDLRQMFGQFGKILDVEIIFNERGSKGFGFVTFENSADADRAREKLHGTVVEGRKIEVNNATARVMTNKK
Sequence	RBNS enrichment (R)
UCUGCUGAGGACACAUGCGCUUUUGUAGAAUUUAACAUCUGGUGUUUUUCUGAAAAAAUAUAUAUACAUAUAUUGCUUUAUUUGAAACAAAUUAAAAUAUGCUGCAUUUG	0.761
GCUCACAGGUGUUUGUUGGAAUCAUUUGCCGAGUCAUUUCCUCAAAUCAUAUUCCAUUGUGUCAGUUAACAUAGAGUUUUAAAUGUAUGUAUUAUAAAUACCUGUAACCA	0.445
UUCUACAUUGUGACUUGUUUUACUUUAAAAGGGGAUAAACAAAUUUAUAGCAACUAUAAAGUAUCAAUAAUUUUAAAUACUCAUCUCUCUUUUACUAAGAAGGGAUUUUU	0.573
GGUGAUAAUAAGAUAUAGAAUGCUUUUGUUCAGUUCUCCCCUUACAAAGAAAGUCCCUUGCUUGUCUGCACCAGGGAAGCAAGAGCUCCCAGUGACACCACCCCCUGCCU	1.01
GCCAGCCUCCAGUGCUGUCGAGAGACCACCUUCCCCCGACCCGGAGGCACUUCCUUGGGGUCUUUCUCUAGGGUCUCUUCUCUACAAAGCACAACACUAAUGUUCGUUUC	0.29
ACUUUUCAGAGAACCCUUCUGUGCCAGGACUCGUGGAAGCCUGGAGCGGAGCAGAUGCCUGUCCAAGCUGGUCAAGUCCUUCUAGUUCUUGGGCUGAAAUAAGUAACAGU	0.444
UAGGAGCAGUGUGCAAUUCCUGAUUCACUGCACAGUAUUAUGUCAUAAUUGCAGGAAUUAUUUUUUGUUUUUAAAACUGGAUUUGGGGCACAUUCAUUCACCCCAACACU	0.54
UUGUUGGUGGCGAUCGACCAGAUGUGUUCGUCUGCACAGCCGCGAGGCAACACUGUUCCGUUUGCACAUGAAGGACCACCACUCACCCCUCCCCCCAGGACCACCCAGGC	0.435
AAGUAAUUACUAAAUGCACUUAAACCAGGGCAGGAAGGAAUGGAAGGAUGGAGCUAGAAAGCUCAGAGUGGGCCAGAGCAGGGGUGUGACACUUGCAAAGACAGGGCUCU	0.816
CCAUACACUUUAGAAGAACGCUUCUCUUCUAUUCCAAUAAAAAGUCCUUUUAGCAAUGCAACAUAUUAACAAAAUUGGGUGCAUUCAGGGUGGUAUGGCCAUAGACCAGA	0.366
GGCAUCACACCUGCCUCUGUUGGCUUUUUAGUUAGGAAGGAUCCAGCUAGGCCCGUGUGGUUAGAUCAGCUUUGUUACUGAAUUACCUAAAACCAGACCACAGCACAGCC	0.42
UGGGGCCUAUCAGUGUGCCCCCCAUCCUGGCCCAUCAGUGUACCCCCGCCCAGGCUGGCCAGCCCCACAGCCCACGUCCUGUCAGUGCCGCCGCCUCGCCCACCGCAUGC	10.6

Sample 5
Target: Interferon regulatory factor 7, full length, phosphomimetic (IRF7, Homo sapiens, UniProt Q92985, residues 1-503, S101K/S471D/S472D/S475D/S476D/S477D/S483D/S484D/S487D)
Method: protein-binding microarray
Molecule type: double-stranded DNA, one strand shown
Medium: in vitro
Tested at: 250 nM
Notes: 60-bp whole probe
Together with: salmon DNA 0.4 mg/ml
Baseline: random background probes
Direction: higher = stronger binding
Shared flanks, not repeated: GCCTAGCAC … GTCTTGATTCGCTTGACGCTGCTG
Construct (chain): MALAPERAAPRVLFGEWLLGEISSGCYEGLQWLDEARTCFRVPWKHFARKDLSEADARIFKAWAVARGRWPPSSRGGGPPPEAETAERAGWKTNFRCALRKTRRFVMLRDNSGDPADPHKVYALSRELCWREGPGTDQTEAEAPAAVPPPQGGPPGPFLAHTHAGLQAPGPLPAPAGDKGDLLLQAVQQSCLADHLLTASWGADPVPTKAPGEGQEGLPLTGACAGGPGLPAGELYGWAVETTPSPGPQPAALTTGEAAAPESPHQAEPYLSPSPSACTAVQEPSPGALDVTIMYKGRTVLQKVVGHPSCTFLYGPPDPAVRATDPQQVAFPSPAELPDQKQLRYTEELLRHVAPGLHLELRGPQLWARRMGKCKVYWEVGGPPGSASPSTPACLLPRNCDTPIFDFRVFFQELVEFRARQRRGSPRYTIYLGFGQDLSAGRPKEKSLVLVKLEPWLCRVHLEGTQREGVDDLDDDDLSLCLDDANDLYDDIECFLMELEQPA
Sequence	log fluorescence [z-score]
GACGATTTCAGTATCGAGAAGTGCTAG	0.158
TCACTCTTCTTGCATCTGACTGTGCTA	0.569
TTAGATTTCGGGACTGGATAAGTGCTA	0.202
TTAGGTATCCTTCTCCTTTCGTGCTAG	0.697
TGAAGAATGCCTTTAATAAGGTGCTAG	-0.586
CACGATTCCAGTTTCGAGACGTGCTAG	5.09
TCAGCCCTCACCATCATACTGTGCTAG	-0.627
GTAGGTTTCGGTTCCGGTTAGTGCTAG	13.1
TTAGGTTTCGCTTCCGGTTAGTGCTAG	10.8
GACGGACTGGGGACTGAGGACGTGCTA	-0.949
TTCGATTTCAGTATCGATTAGTGCTAG	1.69
CTGTACTTGAATTCTGCAAAGTGCTAG	0.567
TTAGGACTGGGGTACCGGTTAGTGCTA	0.185
GACAATTTCGGGACTGGAGACGTGCTA	0.303
TTACAATTTGCTTTAGTCATGTGCTAG	-0.0116
TTTCATTTATTTACTCTCTACGTGCTA	1.39
TCACTTTTCATTACTGCACTGTGCTAG	1.36
TTCACTTTCTTTAACTCATTGTGCTAG	0.927
TCATGTCTGTTTCCTCTTACTGTGCTA	1.68
GACGGTCTCCGTTTCGGGACGTGCTAG	1.78
TACGGTCTCGGTATCGGGACGTGCTAG	2.15
GTGTTTTCATTTTATGACAGCGTGCTA	4.49
GCACTTTTCCCCCTAGTTGTGTGCTAG	1.43
TTAGATATCAGTTTCCATTAGTGCTAG	2.8
CACGATTTCAGTATCGAGACGTGCTAG	0.523

Repeated from above (sample 3):
Sequence	E-score
AACTAAGA	-0.0748
AGGACCCC	-0.0221
CAGGGTTA	-0.104
ATGCACAC	-0.0743
AACTGAGC	-0.0116
CCCTACTA	0.0628
GGTTACAC	-0.0562
CTAGAGAG	-0.23
CATAAGTC	-0.105
